# Measured values collected from several papers.
# Parts stem from different laboratories: compare values within a part only. Changes are numbered by the printed parent chain.

# Set 1
# Target: RING finger protein unkempt homolog, zinc fingers 1-6, GST-SBP tag (UNK, Homo sapiens, UniProt Q9C0B0, residues 30-357)
# Technique: RNA Bind-n-Seq
# Form: RNA
# Matrix: in vitro
# Concentration: not given
# Setting: RNA with constant flanks, human and mouse sites, ends assumed
# Relative to: input RNA pool
# Reading: higher = stronger binding
# Shared flanks, not repeated: GGGAGUUCUACAGUCCGACGAUC … CAACAGAGGAUUGAGCAUCA
# Construct (chain): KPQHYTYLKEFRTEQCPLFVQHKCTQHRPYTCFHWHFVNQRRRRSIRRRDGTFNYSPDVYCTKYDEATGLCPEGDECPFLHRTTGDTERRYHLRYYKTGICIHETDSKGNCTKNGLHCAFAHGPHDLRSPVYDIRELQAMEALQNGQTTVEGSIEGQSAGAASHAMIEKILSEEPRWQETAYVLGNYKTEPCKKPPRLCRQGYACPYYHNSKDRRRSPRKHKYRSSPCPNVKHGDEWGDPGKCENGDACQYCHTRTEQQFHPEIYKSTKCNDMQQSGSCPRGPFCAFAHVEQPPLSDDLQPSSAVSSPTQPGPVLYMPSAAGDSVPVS
Strand,bound/input enrichment
UUUCCUGGGAACAGCACCCAGUACAACAUCCUGGAAGGGUUGGAAAAGCUCAAACAUCUAGACUUUCUGAAGCAGCCACUGGCCACCCAAAAGGAUCUCACUGGCCAGGUGCCCACUCCU,0.244 ratio
GAUGGACGUGGAGAAAGGCAAGAUUGAAGACACUGGAGGCAGUGGCGGCUCCUAUUCCAUCAAAACCCAGUUUAACUCGGAGGAGCAGUGGACAAAAGCGCUCAAGUUCAUGCUGACCAA,0.139 ratio
UUUAAGACUUUAUAUUGCUUUUCAAACAAAGAAAGCCCUAACCAAAACAAUACUACCCACUUAGAUAUUGCUGCAGUUCAAGGUUUUUCAGUCAUCUUGGACUUCUUGUAUUCUGGUAAC,3 ratio
UCUCCUAGUAGUGAUCUCACACUUUCAAGUGUUCUCUGGGAUAGAGAGAGAUCAAGCUUUUAUAGCCUGACGAGUUCAAACAUCAGUAAAUGGGAAUUAGAUGAUUCUUCAGAAAAGCAU,1.06 ratio
GCUGUUAAGAUGCUCAGAAAUGCAAGAAAGAAGUCACUGUUUCAGUAAAAUCUCUAGUAAUGAUAAAAAAUUAAAUUAGUCUUCCCAAGCAUCAUGGAUCAUUUUGGACAAGAUUUUCUA,5.36 ratio
UUGCCUUUUCAGAGCAUGAGGUCAGGCUCUGUAUCCCUCCUUUUCCUAGCUGAUAUUCUAACUAGAAGCAUUUGUCAAUUCCUUUGCCUCCCAACUGACAACACACGUUCAUUUUCCAAC,1.88 ratio
CAUCGAAUUGGAAGAACUGCUCGCAGUACCAAAACAGGCACAGCAUACACUUUCUUUACACCUAAUAACAUAAAGCAAGUGAGCGACCUUAUCUCUGUGCUUCGUGAAGCUAAUCAAGCA,0.0837 ratio
AUCAGCUGGACAGAGCAGAACUAUCCUCAAGGUGGGAAGGAGAGUAAUAUGUCAACGUUAUUAGAAAGAGCUGUAGAAGCACUACAAGGAGAAAAACGAUAUUAUAGUGAUCCUCGAUUU,0.933 ratio

# Set 2
# Target: CCNB1, cyclin fold, Cln2 fusion (human)
# Technique: yeast growth competition, sequencing
# Matrix: yeast
# Setting: weak parent motif
# Relative to: not given
# Reading: higher = stronger binding
# Parent: CDKN1A docking peptide (human); SKACRRLFGPVDS
Change,normalised enrichment score
V11H,0.228
A3V,1.55
R6T,0.0858
R5V,0.201
V11E,0.527
D12F,0.252
C4S,0.0829
R5G,0.0384
G9M,0.378
C4D,0.113

# Set 3
# Target: ABI1, truncated, D143A, DHFR fusion (Arabidopsis thaliana)
# Technique: DHFR PCA, deep sequencing
# Matrix: yeast
# Setting: methotrexate growth selection, single substitutions
# With: (+)-ABA 4.8 µM
# Relative to: wild-type fitted maximum
# Reading: higher = stronger binding
# Parent: PYL1, truncated, DHFR fusion (Arabidopsis thaliana); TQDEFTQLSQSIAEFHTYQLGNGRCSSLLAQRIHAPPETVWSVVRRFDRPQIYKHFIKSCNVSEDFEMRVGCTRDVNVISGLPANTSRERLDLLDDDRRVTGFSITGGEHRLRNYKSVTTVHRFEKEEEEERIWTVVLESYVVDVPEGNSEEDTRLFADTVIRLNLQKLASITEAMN; partner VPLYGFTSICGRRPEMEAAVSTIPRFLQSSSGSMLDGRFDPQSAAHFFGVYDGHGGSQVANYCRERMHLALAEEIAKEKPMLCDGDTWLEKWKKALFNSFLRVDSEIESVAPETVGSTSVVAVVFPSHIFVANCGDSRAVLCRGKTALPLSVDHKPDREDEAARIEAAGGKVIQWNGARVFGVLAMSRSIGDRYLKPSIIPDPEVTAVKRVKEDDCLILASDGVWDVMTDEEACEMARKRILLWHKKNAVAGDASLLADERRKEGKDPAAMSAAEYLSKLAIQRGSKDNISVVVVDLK
Change,relative binding score [%]
R155E,2.41
V118H,47.9
V161E,-5.33
Q7G,74.3
F15Q,-3.37
F66H,42.3

# Single results of other studies
Substance,target,assay,test system,setting,how to read,quantity,result
"PhoQ, residues 284 288 289 292 302 303 AANNSF","PhoP, residues 12 14 15 18 19 STWGI (Escherichia coli, UniProt P23836)","Sort-seq, measured: YFP reporter",E. coli,"PhoQ-PhoP variant library, with: 10 µM Mg2+","relative to: high Mg2+ state, higher = stronger signaling",fold induction,0.76

# For quick reference, copied from above (set 2):
Change,normalised enrichment score
V11E,0.527
D12F,0.252
C4D,0.113
